Experimental data of several laboratories.
± marks the error that the study gave.
KDM1A: Lysine-specific histone demethylase 1A (KDM1A, Homo sapiens, UniProt O60341)
Rhomboid protease AarA: Rhomboid protease AarA (Providencia stuartii, UniProt P46116)
UniProt P46116, sequence (whole entry, looked up): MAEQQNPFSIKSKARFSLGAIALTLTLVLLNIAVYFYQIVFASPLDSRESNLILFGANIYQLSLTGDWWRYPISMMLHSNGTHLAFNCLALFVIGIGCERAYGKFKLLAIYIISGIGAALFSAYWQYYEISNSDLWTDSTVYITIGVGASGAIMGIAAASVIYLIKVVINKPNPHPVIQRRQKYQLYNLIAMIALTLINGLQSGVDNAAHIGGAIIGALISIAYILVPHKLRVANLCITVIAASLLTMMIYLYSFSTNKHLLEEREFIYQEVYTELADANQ
UniProt Q9Y337, sequence (whole entry, looked up): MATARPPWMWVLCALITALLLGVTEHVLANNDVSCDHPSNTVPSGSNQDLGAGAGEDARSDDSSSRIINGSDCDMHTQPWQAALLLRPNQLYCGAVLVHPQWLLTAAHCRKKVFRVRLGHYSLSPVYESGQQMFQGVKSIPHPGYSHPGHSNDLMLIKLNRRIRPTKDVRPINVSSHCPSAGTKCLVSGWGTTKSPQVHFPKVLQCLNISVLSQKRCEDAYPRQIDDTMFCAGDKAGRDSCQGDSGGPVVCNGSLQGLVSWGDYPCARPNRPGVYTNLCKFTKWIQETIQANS
UniProt Q9HB29, sequence (whole entry, looked up): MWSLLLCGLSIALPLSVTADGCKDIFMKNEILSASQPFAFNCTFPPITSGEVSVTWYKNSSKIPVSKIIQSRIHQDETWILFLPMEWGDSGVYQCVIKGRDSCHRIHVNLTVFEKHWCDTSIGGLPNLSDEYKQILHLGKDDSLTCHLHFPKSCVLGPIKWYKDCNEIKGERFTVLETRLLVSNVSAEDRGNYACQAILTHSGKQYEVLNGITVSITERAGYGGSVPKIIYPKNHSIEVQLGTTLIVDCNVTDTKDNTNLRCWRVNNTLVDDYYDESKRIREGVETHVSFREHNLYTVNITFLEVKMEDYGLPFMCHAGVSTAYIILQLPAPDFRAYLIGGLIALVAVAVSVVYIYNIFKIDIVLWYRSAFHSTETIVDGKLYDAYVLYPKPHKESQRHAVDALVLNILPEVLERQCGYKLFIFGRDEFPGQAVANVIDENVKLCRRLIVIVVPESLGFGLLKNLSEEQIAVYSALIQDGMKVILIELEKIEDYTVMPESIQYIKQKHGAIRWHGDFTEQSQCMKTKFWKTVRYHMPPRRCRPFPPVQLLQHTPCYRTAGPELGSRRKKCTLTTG
UniProt P12295, sequence (whole entry, looked up): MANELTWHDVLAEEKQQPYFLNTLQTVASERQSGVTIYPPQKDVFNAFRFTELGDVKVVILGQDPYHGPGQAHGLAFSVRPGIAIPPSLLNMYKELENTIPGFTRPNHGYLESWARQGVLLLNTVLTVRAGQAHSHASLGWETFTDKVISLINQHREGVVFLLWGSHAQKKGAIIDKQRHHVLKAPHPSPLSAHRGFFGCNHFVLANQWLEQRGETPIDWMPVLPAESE
UniProt O75417, sequence (whole entry, looked up): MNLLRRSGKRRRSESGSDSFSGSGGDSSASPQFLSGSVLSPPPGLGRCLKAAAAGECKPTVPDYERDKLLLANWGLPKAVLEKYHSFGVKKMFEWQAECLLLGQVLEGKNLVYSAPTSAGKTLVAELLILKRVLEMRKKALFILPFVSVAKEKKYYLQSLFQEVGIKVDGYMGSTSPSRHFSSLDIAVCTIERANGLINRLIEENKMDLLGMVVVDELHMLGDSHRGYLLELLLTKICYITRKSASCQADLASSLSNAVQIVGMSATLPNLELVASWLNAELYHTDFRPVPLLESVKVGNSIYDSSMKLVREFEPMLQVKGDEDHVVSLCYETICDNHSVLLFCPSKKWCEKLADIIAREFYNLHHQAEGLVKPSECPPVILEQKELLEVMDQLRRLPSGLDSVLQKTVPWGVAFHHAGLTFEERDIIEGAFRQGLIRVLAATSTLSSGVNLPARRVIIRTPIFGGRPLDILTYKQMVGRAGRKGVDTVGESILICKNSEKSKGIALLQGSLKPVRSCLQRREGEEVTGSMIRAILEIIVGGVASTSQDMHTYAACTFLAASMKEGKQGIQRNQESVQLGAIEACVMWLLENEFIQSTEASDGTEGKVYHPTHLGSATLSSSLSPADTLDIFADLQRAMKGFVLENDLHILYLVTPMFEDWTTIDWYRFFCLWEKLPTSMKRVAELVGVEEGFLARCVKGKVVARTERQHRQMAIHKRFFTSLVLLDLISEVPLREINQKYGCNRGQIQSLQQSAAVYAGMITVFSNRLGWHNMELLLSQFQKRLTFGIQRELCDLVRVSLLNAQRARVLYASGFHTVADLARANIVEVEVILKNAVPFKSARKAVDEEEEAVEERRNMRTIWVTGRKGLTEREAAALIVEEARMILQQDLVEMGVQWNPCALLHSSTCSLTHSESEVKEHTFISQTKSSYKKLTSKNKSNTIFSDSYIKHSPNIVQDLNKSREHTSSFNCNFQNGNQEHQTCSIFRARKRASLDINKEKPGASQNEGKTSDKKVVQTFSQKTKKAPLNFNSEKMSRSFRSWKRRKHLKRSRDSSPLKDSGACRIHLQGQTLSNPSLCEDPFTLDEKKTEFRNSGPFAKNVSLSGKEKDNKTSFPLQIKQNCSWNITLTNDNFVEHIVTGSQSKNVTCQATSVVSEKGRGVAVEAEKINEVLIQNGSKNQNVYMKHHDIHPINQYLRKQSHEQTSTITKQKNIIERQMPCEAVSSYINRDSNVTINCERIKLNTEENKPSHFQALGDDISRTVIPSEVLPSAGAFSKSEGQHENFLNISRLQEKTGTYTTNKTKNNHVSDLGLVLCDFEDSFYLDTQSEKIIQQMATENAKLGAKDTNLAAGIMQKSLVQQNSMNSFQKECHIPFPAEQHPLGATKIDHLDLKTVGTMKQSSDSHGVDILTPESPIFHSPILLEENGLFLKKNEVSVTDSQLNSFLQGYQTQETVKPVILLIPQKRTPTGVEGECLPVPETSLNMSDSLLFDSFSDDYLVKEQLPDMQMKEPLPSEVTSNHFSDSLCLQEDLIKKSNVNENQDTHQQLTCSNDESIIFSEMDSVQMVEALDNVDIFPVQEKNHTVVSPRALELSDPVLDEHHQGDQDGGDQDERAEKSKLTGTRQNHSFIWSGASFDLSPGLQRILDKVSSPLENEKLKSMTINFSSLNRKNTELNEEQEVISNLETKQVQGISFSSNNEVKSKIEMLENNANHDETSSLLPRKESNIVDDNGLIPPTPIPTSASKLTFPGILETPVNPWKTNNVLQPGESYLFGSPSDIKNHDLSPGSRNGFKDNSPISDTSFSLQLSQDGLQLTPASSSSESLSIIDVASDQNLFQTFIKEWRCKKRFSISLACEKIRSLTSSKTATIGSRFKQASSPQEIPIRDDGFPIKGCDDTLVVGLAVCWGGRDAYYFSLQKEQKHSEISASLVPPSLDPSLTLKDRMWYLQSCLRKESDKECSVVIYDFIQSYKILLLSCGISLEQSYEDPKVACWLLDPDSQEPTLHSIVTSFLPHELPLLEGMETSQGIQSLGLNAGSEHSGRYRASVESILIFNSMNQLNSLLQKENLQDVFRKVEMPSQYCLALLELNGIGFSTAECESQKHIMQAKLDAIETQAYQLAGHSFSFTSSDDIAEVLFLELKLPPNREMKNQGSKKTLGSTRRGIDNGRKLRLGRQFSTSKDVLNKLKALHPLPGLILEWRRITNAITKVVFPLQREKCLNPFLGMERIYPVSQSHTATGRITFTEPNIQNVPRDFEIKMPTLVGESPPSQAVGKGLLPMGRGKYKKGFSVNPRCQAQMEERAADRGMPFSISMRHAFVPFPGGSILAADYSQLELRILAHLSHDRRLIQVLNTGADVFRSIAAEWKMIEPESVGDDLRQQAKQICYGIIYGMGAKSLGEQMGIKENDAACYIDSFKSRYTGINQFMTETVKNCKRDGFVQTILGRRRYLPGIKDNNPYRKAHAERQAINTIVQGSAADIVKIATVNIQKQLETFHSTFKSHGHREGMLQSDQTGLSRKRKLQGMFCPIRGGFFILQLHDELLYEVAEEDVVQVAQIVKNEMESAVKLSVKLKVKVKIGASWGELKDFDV
UniProt P07711, sequence (whole entry, looked up): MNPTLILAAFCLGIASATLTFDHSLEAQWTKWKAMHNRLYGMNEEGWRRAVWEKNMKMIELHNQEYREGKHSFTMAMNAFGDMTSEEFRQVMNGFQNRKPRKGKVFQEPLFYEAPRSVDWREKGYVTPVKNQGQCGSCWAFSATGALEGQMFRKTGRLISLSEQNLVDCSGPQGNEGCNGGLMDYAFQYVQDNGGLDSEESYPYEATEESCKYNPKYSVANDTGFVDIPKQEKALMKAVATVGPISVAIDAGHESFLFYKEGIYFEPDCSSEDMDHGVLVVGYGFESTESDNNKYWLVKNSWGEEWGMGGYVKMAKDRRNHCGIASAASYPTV

With `CN(C)C(=O)c1cccc([C@@H]2C[C@H]2NC2CCC2)c1` the remaining activity was 65.1% (KDM1A; demethylase activity, inhibitor; 16.67 µM, together with: H3K4me2 peptide).
The remaining activity of `Cc1ccc(C[C@H](NC(=O)CN2CCCc3cc4cc(C(=O)NCCNC(=O)CCCC[C@@H]5SC[C@@H]6NC(=O)N[C@@H]65)c(=O)oc4cc32)C(=O)NC/C=C/S(=O)(=O)c2ccccc2)cc1` is reported as 3% (Procathepsin L (CTSL, Homo sapiens, UniProt P07711); inhibitor; 5 µM, 60 min, together with: Z-Phe-Arg-pNA; relative to: uninhibited control).
For `O=C1CC(c2ccccc2)N1S(=O)(=O)c1cccc(Cl)c1` (stereo not shown), the remaining activity was 71% (Rhomboid protease AarA; substrate cleavage, gel-based; 100 µM; relative to: DMSO).
With `O=C(Nc1cccc([C@@H]2C[C@H]2NC2CCC2)c1)c1ccccc1` the remaining activity was 19.8% (KDM1A; demethylase activity, inhibitor; 16.67 µM, together with: H3K4me2 peptide).
With `C[C@](C(=O)NC1CCOCC1)(c1cncnc1)N(C(=O)[C@H](F)Cl)c1ccc(OC(F)(F)Cl)cc1` the remaining activity was 100% (Kallikrein-5 (Homo sapiens, UniProt Q9Y337); enzyme activity, inhibitor; 10 µM).
For `O=C(Nc1nncs1)c1cccc([C@@H]2C[C@H]2NC2CCC2)c1`, the remaining activity was 104% (KDM1A; demethylase activity, inhibitor, Amplex Red; 0.0009145 µM, together with: H3K4me2 peptide; relative to: vehicle).
`O=C=[N][Ru-4]123([n]4c5ccc(O)cc5c5c6c(c7cc(F)c[n+]1c7c54)C(=O)NC6=O)[S+]1CC[S+]2CC[S+]3CC1` (stereo not shown) gave a remaining activity of 64% (KIT (Homo sapiens, UniProt P10721, V560G); enzyme activity; 100 nM, human enzyme, together with: 10 µM ATP; relative to: untreated).
With `O=c1cnnc(Nc2ccc(O)cc2)[nH]1` the remaining activity was 96 ± 3.5% (ung (Escherichia coli, UniProt P12295); enzyme activity, inhibitor; concentration not given, counter-screen).
`O=C1CC(c2ccccc2Cl)N1S(=O)(=O)c1cccc(Cl)c1` (stereo not shown) has a remaining activity of 59% (Rhomboid protease AarA; enzyme activity, inhibitor; 100 µM).
The remaining activity of `CC(C)[C@@H]1NC(=O)[C@H](Cc2ccccc2)NC(=O)CSC[C@@H](C(N)=O)NC(=O)[C@H](CCC(=O)O)NC(=O)[C@H](CO)NC(=O)[C@H](Cc2c[nH]c3cccc(Cl)c23)NC(=O)[C@H](C2CCCCC2)NC(=O)[C@H](C(C)C)NC(=O)[C@H](Cc2ccc(O)cc2)NC(=O)[C@H](CC(=O)O)NC(=O)[C@H](Cc2c[nH]c3ccccc23)NC(=O)[C@H](Cc2ccc(N)nc2)NC(=O)[C@H](Cc2c[nH]c3ccc(Cl)cc23)NC(=O)[C@H](CCC(=O)O)NC1=O` is reported as -0.4% (Interleukin-1 receptor-like 2 (IL1RL2, Homo sapiens, UniProt Q9HB29); reporter gene, inhibitor, SEAP reporter; HEK-Blue IL-36R cells; 11.11 µM, 6 h, together with: IL-36β 0.03 ng/mL; relative to: IL-36β alone).
The remaining activity of `COc1ccccc1-c1ccncc1C(=O)Nc1nnc(OCc2ccc(Cl)cc2)s1` is reported as 15% (DNA polymerase theta, helicase domain (POLQ, Homo sapiens, UniProt O75417); ATPase activity, ADP-Glo; 30 µM; relative to: 0 µM cpd).
For `COC(=O)c1cccc([C@@H]2C[C@H]2NC2CCC2)c1`, the remaining activity was 65.5% (KDM1A; demethylase activity, inhibitor; 5.556 µM, together with: H3K4me2 peptide).
The remaining activity of `Cc1cccc(-c2ccc3nc(NC(=O)C4CCCO4)nn3c2)c1` (stereo not shown) is reported as 93% (AMPK; enzyme activity; 10 µM).
